Assay results pooled from the literature.
Each line is one published result; not all experiments were run side by side. ± marks the error that the study gave.
Organism: Klebsiella pneumoniae

| SMILES | test | test system | setting | MIC |
| --- | --- | --- | --- | --- |
| CCn1[c]([Au-]([Cl])([Cl])[Cl])[n+](CC)c2ccc(C(=O)OC)cc21 | broth dilution | DSM 11678 | 20 h, 37 °C | 24.9 ± 8.6 µM |
| CC(C)CS[C@H]1[C@H](O)[C@@H](N)[C@@H](O[C@H]2[C@H](O[C@@H]3O[C@H](CO)[C@@H](O[C@H]4O[C@@H](CN)[C@@H](O)[C@H](O)[C@H]4N)[C@H]3O)[C@@H](O)[C@H](N)C[C@@H]2N)O[C@@H]1CO | – | AG215 | – | 4 µg/mL |
| COc1ccc(-c2ccn(CC[C@](C)(C(=O)NO)S(C)(=O)=O)c(=O)c2)c(F)c1 | microbial growth | – | – | 1 µg/mL |
| CCCCCC/C=C\CCCCCCC[C@@H](O)Cc1cc(O)cc(O)c1 | microbial growth, broth dilution | ATCC10031 | – | > 64 µg/mL |
| Oc1cc(C(F)(F)F)ccc1-c1nc2c(C(F)(F)F)cc(C(F)(F)F)cc2[nH]1 | – | B9 | – | 25 µM |
| CN1CCC(NCCC2(Cc3ccc(Cl)cc3)CCCCC2)CC1 | microbial growth | – | 10 h | 200 µM |
| CCCCCCCCCCCCCCCc1cc(O)cc(O)c1 | microbial growth, broth dilution | ATCC10031 | – | > 64 µg/mL |
| CC(C)C[C@H](NC(=O)[C@H](CC(N)=O)NC(=O)[C@H](CCCNC(=N)N)NC(=O)[C@@H](CC(C)C)NC(=O)[C@H](Cc1ccccc1)NC(=O)[C@H](CC(=O)O)NC(=O)[C@H](CCCCN)NC(=O)[C@@H](CC(C)C)NC(=O)[C@H](CCCNC(=N)N)NC(=O)[C@H](CCC(N)=O)NC(=O)[C@@H](NC(=O)[C@@H](CC(C)C)NC(=O)[C@H](CCCNC(=N)N)NC(=O)[C@H](CCCCN)NC(=O)[C@H](Cc1ccccc1)NC(=O)CN)C(C)C)C(=O)N[C@H](C(N)=O)C(C)C | broth microdilution | ATCC 13883 | – | > 100 µM |
| CC(=O)N1CCc2cc(S(=O)(=O)N3CCN(c4cncc(C(F)(F)F)c4)CC3)ccc21 | broth microdilution | 10031 | 22 h | > 64 µg/mL |
| CO[C@@H](C(N)=O)[C@H](NC(=O)c1ccc(NC(=O)c2ccc([N+](=O)[O-])cc2)cc1)C(=O)Nc1ccc(C(=O)Nc2ccc(C(=O)Nc3ccc(C(=O)O)cc3)c(O)c2OC(C)C)cc1 | microbial growth | DSM30104 | – | > 64 µg/mL |
| CC(C)C[C@@H](NC(=O)[C@@H](CCCCN)NC(=O)[C@@H](CCCCNC(=O)[C@@H](CC(C)C)NC(=O)[C@@H](CCCCN)NC(=O)[C@@H](CCCCNC(=O)[C@@H](CC(C)C)NC(=O)[C@@H](CCCCN)NC(=O)[C@@H](CCCCNC(=O)[C@@H](CC(C)C)NC(=O)[C@H](N)CCCCN)NC(=O)[C@@H](CC(C)C)NC(=O)[C@H](N)CCCCN)NC(=O)[C@@H](CC(C)C)NC(=O)[C@@H](CCCCN)NC(=O)[C@@H](CCCCNC(=O)[C@@H](CC(C)C)NC(=O)[C@H](N)CCCCN)NC(=O)[C@@H](CC(C)C)NC(=O)[C@H](N)CCCCN)NC(=O)[C@@H](CC(C)C)NC(=O)[C@@H](CCCCN)NC(=O)[C@@H](CCCCNC(=O)[C@@H](CC(C)C)NC(=O)[C@@H](CCCCN)NC(=O)[C@@H](CCCCNC(=O)[C@@H](CC(C)C)NC(=O)[C@H](N)CCCCN)NC(=O)[C@@H](CC(C)C)NC(=O)[C@H](N)CCCCN)NC(=O)[C@@H](CC(C)C)NC(=O)[C@@H](CCCCN)NC(=O)[C@@H](CCCCNC(=O)[C@@H](CC(C)C)NC(=O)[C@H](N)CCCCN)NC(=O)[C@@H](CC(C)C)NC(=O)[C@H](N)CCCCN)C(N)=O | broth microdilution | NCTC 418 | 37 °C | 32 µg/mL |
| C[C@H]1COc2c(N3CCN(C)CC3)c(F)cc3c(=O)c(C(=O)N[C@@H](CCCNC(=N)N)C(=O)N[C@@H](Cc4ccc(-c5ccccc5)cc4)C(=O)N[C@@H](CCCNC(=N)N)C(=O)N[C@@H](Cc4ccc(-c5ccccc5)cc4)C(=O)N[C@@H](CCCNC(=N)N)C(N)=O)cn1c23 | broth microdilution | ATCC 2814 | – | 20 µM |
| CC[C@H](C)[C@@H]1NC(=O)[C@@H]2CSSC[C@@H]3NC(=O)[C@H](C(C)C)NC(=O)CNC(=O)CNC(=O)[C@H](CCCNC(=N)N)NC(=O)[C@H](CCCNC(=N)N)NC(=O)CNC(=O)[C@H](C(C)C)NC(=O)[C@@H]4CSSC[C@H](NC(=O)[C@H](CC(C)C)NC(=O)[C@H](CCCNC(=N)N)NC(=O)CNC(=O)CNC(=O)[C@H](CO)NC(=O)CNC(=O)[C@H](CO)NC(=O)CNC(=O)[C@@H]5CSSC[C@H](NC(=O)[C@H](CC(=O)O)NC(=O)[C@H](CO)NC(=O)[C@H](CC(=O)O)NC(=O)[C@H](CCCNC(=N)N)NC(=O)[C@H](CCCNC(=N)N)NC(=O)[C@H](CSSC[C@H](NC1=O)C(=O)N[C@@H](CCCNC(=N)N)C(=O)NCC(=O)N[C@@H](CC(N)=O)C(=O)NCC(=O)N[C@@H](Cc1ccc(O)cc1)C(=O)N5)NC(=O)[C@H](CCCNC(=N)N)NC(=O)[C@H](CCC(N)=O)NC(=O)[C@H](CC(C)C)NC(=O)[C@H]([C@@H](C)CC)NC(=O)[C@H](CCCCN)NC(=O)[C@@H]1CCCN1C3=O)C(=O)N1CCC[C@H]1C(=O)NCC(=O)N[C@@H](C)C(=O)N2)C(=O)N[C@@H](Cc1ccc(O)cc1)C(=O)N[C@H]1CSSC[C@H](NC(=O)[C@H](Cc2ccccc2)NC(=O)[C@H](CCCNC(=N)N)NC(=O)[C@H](CCCNC(=N)N)NC(=O)[C@H](CCCNC(=N)N)NC1=O)C(=O)N[C@@H](C(C)C)C(=O)N4 | – | BAA1705, CAMHB | – | 12.5 µM |
| CCCCCCCCCC(=O)NCCCC[C@@H](NC(=O)[C@@H](CC(C)C)NC(=O)[C@@H](CCCCN)NC(=O)[C@@H](CCCCNC(=O)[C@@H](CC(C)C)NC(=O)[C@@H](CCN)NC(=O)[C@@H](CCCCNC(=O)[C@@H](Cc1ccccc1)NC(=O)[C@H](N)CCCN)NC(=O)[C@@H](Cc1ccccc1)NC(=O)[C@H](N)CCCN)NC(=O)[C@@H](CC(C)C)NC(=O)[C@@H](CCN)NC(=O)[C@@H](CCCCNC(=O)[C@@H](Cc1ccccc1)NC(=O)[C@H](N)CCCN)NC(=O)[C@@H](Cc1ccccc1)NC(=O)[C@H](N)CCCN)C(N)=O | broth microdilution | NCTC 418 | 37 °C | > 64 µg/mL |
| CC[P+](CC)(CC)[Au-][S+](C[C@H]1O[C@H](O[C@H]2O[C@H](COC(C)=O)[C@@H](OC(C)=O)[C@H](OC(C)=O)[C@H]2OC(C)=O)[C@H](OC(C)=O)[C@@H](OC(C)=O)[C@@H]1OC(C)=O)[Au-][P+](CC)(CC)CC.[Cl-] | – | ATCC 700603 | – | > 194 µM |
| N#Cc1ccc2cccc(O)c2n1 | microbial growth, agar dilution | ATCC700603 | – | > 1500 µM |
| CCOC(=O)c1ccc2c(c1)n(CC)[c]([Au-]([Cl])([Cl])[Cl])[n+]2CC | broth dilution | DSM 11678 | 20 h, 37 °C | 29.1 µM |
| CCS(=O)(=O)[C@H]1[C@H](O)[C@@H](N)[C@@H](O[C@H]2[C@H](O[C@@H]3O[C@H](CO)[C@@H](O[C@H]4O[C@@H](CN)[C@@H](O)[C@H](O)[C@H]4N)[C@H]3O)[C@@H](O)[C@H](N)C[C@@H]2N)O[C@@H]1CO | – | AG215 | – | > 128 µg/mL |
| CC(C)C[C@H](NC(=O)[C@H](CC(N)=O)NC(=O)[C@H](CCCNC(=N)N)NC(=O)[C@@H](CC(C)C)NC(=O)[C@H](Cc1ccccc1)NC(=O)[C@H](CC(=O)O)NC(=O)[C@H](CCCCN)NC(=O)[C@@H](CC(C)C)NC(=O)[C@H](CCCNC(=N)N)NC(=O)[C@H](CCC(N)=O)NC(=O)[C@@H](NC(=O)[C@@H](CC(C)C)NC(=O)[C@H](CCCNC(=N)N)NC(=O)[C@H](CCCCN)NC(=O)[C@H](Cc1ccc(C(F)(F)F)cc1)NC(=O)CN)C(C)C)C(=O)N[C@H](C(N)=O)C(C)C | broth microdilution | ATCC 13883 | – | 50 µM |
| CC[P+](CC)(CC)[Au-][S][C@@H]1O[C@H](COC(C)=O)[C@@H](OC(C)=O)[C@H](OC(C)=O)[C@H]1NC(=O)C(Cl)(Cl)Cl | – | ATCC 700603 | – | > 328 µM |
| Oc1ccc(C(F)(F)F)cc1-c1nc2c(Cl)cc(Cl)cc2[nH]1 | – | B9 | – | 25 µM |
